Experimental data pooled from the literature.
Every numbered part comes from another study and shows a few of its results, in no order.

Study 1 — method: RNA Bind-n-Seq; form: RNA; sample: in vitro; concentration: 365 nM; reference: no-protein control; reading: higher = stronger binding
Target: RNA binding protein fox-1 homolog 2, RRM domain, GST-SBP tag (RBFOX2, Homo sapiens, UniProt O43251-10, residues 100-194)
Setting: natural RNA segment, single round, ends assumed
Residues (chain): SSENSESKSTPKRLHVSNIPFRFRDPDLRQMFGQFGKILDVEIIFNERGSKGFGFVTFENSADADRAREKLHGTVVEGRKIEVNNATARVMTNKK
For `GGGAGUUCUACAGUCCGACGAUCGGAUCUCCUUCCCAGUUUCAGCACUUCAGUCAGGGCUGACCAACUUGAAAAGAGCCUCCGACUGUCCUCCAUCGGACAGGGGAAGAGGAGGCCGAGCCCACCCUUAGCCAUGGAAUUCUCGGGUGCCAA`, “RBNS enrichment (R)” read 0.507.
For `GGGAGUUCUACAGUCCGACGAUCAGUGUCAGUAGCUGUCACGCGCAUUUGUGGUGCUUUGAUGUUUGCGAGUCUAACCUCCUCUCAUAAAUUUGGUCAGAUAAUUAAUUGGAACAAAGGGAAACAGAUAUUUGUGGAAUUCUCGGGUGCCAA`, “RBNS enrichment (R)” read 3.32.
`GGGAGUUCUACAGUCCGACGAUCCCAGCCACACCUGCUGCACGCCGCGUUAGUGUGCGGCUCCGGGCCUGAGCAUUCGCAAAGCUCGCUUCUCCAGGGAGCCUCCUCUUGGCUUUGGAAAAGAGCCCAGGGACUGGAAUUCUCGGGUGCCAA`: “RBNS enrichment (R)” 0.39.
For `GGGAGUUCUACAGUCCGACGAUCUGGGUGGCCAUUGGUAAAUGUUAGGAACACACCAGGUCACCUGACAUCCCAAGAAUGCUCACAAACCUGCAGGCAUAUCAUUGGCGUAUGGCACUCAUUAAAAAGGAUCAUGGAAUUCUCGGGUGCCAA`, “RBNS enrichment (R)” read 0.549.
`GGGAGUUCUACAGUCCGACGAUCUUUUACACUCUCAACAGCCAAGCACUGCCACGGGGCAGCCACAAUGCCAUGCGUGCUCCAGAGCCUAGGAACAGCAGACAGAACCCAGUUGGAAUGCUUCUACCCUGGCUUGGAAUUCUCGGGUGCCAA` — result for “RBNS enrichment (R)”: 0.28.
Under “RBNS enrichment (R)”, `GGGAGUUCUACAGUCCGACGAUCCCCUCACUCCUACCUCCCAUAGAAGUGUAUUCUUAUCCCUAGUUCCUGUCUGAGUAAGCCAGGGUGGCAGACGCUGGUCCCAAACCUCACCCAGCAACCAGCCUCUCAUUUGGAAUUCUCGGGUGCCAA` is recorded as 0.588.
Under “RBNS enrichment (R)”, `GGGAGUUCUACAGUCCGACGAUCGAUUUGACAAAAUAACAUUUGAGUAUCCGAUUCGCCAUCACCCCCUACCCCAGAAAUAGGACAAUUCACUUCAUUGACCAAGAUGAUCACAUGGAAGGCGGCACAGAGGCUGGAAUUCUCGGGUGCCAA` is recorded as 0.384.
Under “RBNS enrichment (R)”, `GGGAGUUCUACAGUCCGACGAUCAUCACUGAAAAUAUGACUAAUAAAUGUCUCUUCCUUUUUCUUCCUGUCUCCAUCCCCAUGCCUUGUUCUAACUUGCAUACUUGUCCUUUCUGCUCGAAGCUGUCACUUCCUGGAAUUCUCGGGUGCCAA` is recorded as 2.74.

Study 2 — method: protein binding microarray; form: double-stranded DNA, one strand shown; sample: in vitro; concentration: not given; reference: not given; reading: higher = stronger binding
Target: Histone acetyltransferase KAT6A, winged helix 1, GST fusion (KAT6A, Homo sapiens, UniProt Q92794, residues 1-85)
Setting: 8-mer, flanks averaged, mean of 2 arrays, mostly near background
Target sequence (chain): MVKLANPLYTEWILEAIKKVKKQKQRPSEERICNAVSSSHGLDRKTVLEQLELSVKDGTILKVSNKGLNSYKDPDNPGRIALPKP
`CATATTGA` gave an E-score of -0.257.
`AGGAGTTA` has an E-score of -0.158.
The E-score of `AGTACTTC` is reported as 0.0453.
For `AGTACCAG`, the E-score was -0.24.
`ACTAGAAA` has an E-score of -0.138.
With `ACGCTCTG` the E-score was 0.0666.
`GACTCCCA` has an E-score of -0.187.
`AATGCGCT` gave an E-score of 0.231.
`AGATCCCC` gave an E-score of 0.0151.
The E-score of `CCCGGATC` is reported as 0.0579.
For `AACTGAAC`, the E-score was -0.0852.
`CTTTGCTC` gave an E-score of -0.207.
The E-score of `CTTTCGGC` is reported as 0.00564.
`ACACTTGC` gave an E-score of -0.00196.
For `CTATGCTA`, the E-score was -0.0817.
`CGTTAAGA` gave an E-score of -0.182.
For `GAGTTGGA`, the E-score was -0.146.
`CTCTATTA` has an E-score of -0.2.
`ACGAATTA` gave an E-score of -0.165.
The E-score of `TAGAAGCA` is reported as -0.314.
`CCCGCATC` has an E-score of 0.152.
For `ACGCTGTG`, the E-score was -0.0107.

Study 3 — method: universal PBM; form: double-stranded DNA, one strand shown; sample: in vitro; concentration: not given; reading: higher = stronger binding
Target: Sal-like protein 4, full length isoform B (SALL4, Homo sapiens, UniProt Q9UJQ4-2, residues 1-616)
Setting: 8-mer, flanks averaged, mean of replicates
Target sequence (chain): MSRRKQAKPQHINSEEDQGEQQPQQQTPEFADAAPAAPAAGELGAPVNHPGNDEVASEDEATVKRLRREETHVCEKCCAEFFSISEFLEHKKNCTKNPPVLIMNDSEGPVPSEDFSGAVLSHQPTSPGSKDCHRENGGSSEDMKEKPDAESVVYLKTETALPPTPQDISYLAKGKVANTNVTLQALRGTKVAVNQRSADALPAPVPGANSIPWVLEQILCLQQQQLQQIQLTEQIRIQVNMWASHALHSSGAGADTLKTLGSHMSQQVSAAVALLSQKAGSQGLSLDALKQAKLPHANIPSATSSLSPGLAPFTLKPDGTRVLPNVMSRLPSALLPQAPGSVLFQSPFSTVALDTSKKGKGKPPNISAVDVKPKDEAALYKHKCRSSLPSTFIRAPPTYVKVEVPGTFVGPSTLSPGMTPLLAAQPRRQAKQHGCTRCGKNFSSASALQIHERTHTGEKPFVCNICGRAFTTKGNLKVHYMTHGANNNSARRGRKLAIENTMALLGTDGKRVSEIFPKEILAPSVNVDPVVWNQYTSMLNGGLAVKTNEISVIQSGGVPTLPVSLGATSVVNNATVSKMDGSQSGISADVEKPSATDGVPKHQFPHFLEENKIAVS
The E-score of `GATAATAC` is reported as 0.232.
`GGCCGGAA` gave an E-score of -0.169.
For `ACCGGTAA`, the E-score was -0.0914.
The E-score of `CGAAGATC` is reported as 0.0543.
The E-score of `CTGGGAGA` is reported as -0.316.
With `GCCGGTCA` the E-score was -0.272.
`GGCCAAGA` gave an E-score of -0.195.
`ATCAGAGC` has an E-score of -0.16.
For `CGCGCACG`, the E-score was -0.282.
The E-score of `AGATCATA` is reported as 0.287.
For `GCTGCAGC`, the E-score was -0.251.
With `ATGGAGAC` the E-score was 0.049.
`GGCTTCTA` gave an E-score of -0.105.
For `ATGACACC`, the E-score was 0.0154.
The E-score of `CTTTGTTC` is reported as 0.0788.
`CAGCAATA` gave an E-score of 0.163.
For `CGAGCAAC`, the E-score was -0.0985.
`CGCAGGCG` has an E-score of -0.318.
For `ACAACCCG`, the E-score was -0.188.
`CATGTTAC` has an E-score of 0.0978.
For `GATGCTTA`, the E-score was 0.0106.
For `AAAAGGAA`, the E-score was 0.0633.
`ATCACGAT` has an E-score of 0.167.
`ATTTCCAA` gave an E-score of 0.205.
The E-score of `GACCATTA` is reported as 0.22.

Study 4 — method: RNAcompete; form: RNA; sample: in vitro; concentration: 20 nM; setting: 7-mer, probes averaged, single round; reference: mean of 7-mers; reading: higher = stronger binding
Target: PABPC1L2, full length, GST fusion (mouse, UniProt A0ABA7IW68)
Construct (chain): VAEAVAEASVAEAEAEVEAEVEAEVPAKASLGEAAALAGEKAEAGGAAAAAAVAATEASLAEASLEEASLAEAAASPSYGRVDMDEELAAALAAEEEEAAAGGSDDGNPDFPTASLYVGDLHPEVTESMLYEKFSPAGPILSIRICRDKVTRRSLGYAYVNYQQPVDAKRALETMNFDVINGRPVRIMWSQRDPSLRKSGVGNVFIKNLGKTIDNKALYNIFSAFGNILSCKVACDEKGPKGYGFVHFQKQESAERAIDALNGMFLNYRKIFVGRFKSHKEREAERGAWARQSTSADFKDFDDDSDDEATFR
`CGAUAAA` gave a 7-mer Z-score of 2.35.
With `AUGUAGA` the 7-mer Z-score was -0.0391.
`UUCUCAG` has a 7-mer Z-score of -0.369.
`UUGUCAU` has a 7-mer Z-score of -0.382.
With `AUAUCCU` the 7-mer Z-score was -0.258.
For `AAUAGGC`, the 7-mer Z-score was 0.851.
`UGGAUUC` gave a 7-mer Z-score of -0.17.
`AGCAGUA` gave a 7-mer Z-score of -0.0228.
With `UUGGCGG` the 7-mer Z-score was 0.00436.
The 7-mer Z-score of `CGGUAAU` is reported as -0.108.
The 7-mer Z-score of `CCCCGCG` is reported as -0.38.
The 7-mer Z-score of `UCCAAAU` is reported as -0.0101.
The 7-mer Z-score of `ACUAGUG` is reported as -0.224.
With `UAGAACC` the 7-mer Z-score was -0.18.
With `UACGCUA` the 7-mer Z-score was -0.139.
`AGGGACC` gave a 7-mer Z-score of 0.151.
`AAUGGUG` has a 7-mer Z-score of 0.142.
The 7-mer Z-score of `CUUACCG` is reported as -0.257.
The 7-mer Z-score of `UUCAAGA` is reported as -0.13.
`AAUAAGA` gave a 7-mer Z-score of 0.63.
The 7-mer Z-score of `CCCCUAA` is reported as -0.22.
The 7-mer Z-score of `UUCAAGG` is reported as -0.175.
For `AAACUAU`, the 7-mer Z-score was 1.06.
With `GUGCGUA` the 7-mer Z-score was -0.238.
`AUGAUCU` has a 7-mer Z-score of -0.211.

Excerpt of the above (study 4):
With `UACGCUA` the 7-mer Z-score was -0.139.
`AGGGACC` gave a 7-mer Z-score of 0.151.
`AAUGGUG` has a 7-mer Z-score of 0.142.
The 7-mer Z-score of `CUUACCG` is reported as -0.257.
The 7-mer Z-score of `UUCAAGA` is reported as -0.13.
`AAUAAGA` gave a 7-mer Z-score of 0.63.
The 7-mer Z-score of `CCCCUAA` is reported as -0.22.
The 7-mer Z-score of `UUCAAGG` is reported as -0.175.
